Assay results of several laboratories.
Compare with care: the assays were run in different laboratories. Values joined by “and” are separate records of one study, mostly repeats; a detail may differ.
Target: Muscarinic acetylcholine receptor M3 (CHRM3, Homo sapiens, UniProt P20309)

`Cc1cc(-c2ccc3ccccc3c2)nnc1NCCN1CCN(C)CC1`: antagonist activity “negative” (antagonist; concentration not given).
The specific binding of `O=C(O)c1ccc(-c2nc(-c3ccccc3Cl)c3sccn23)cc1` is reported as 105% and 104% (radioligand binding; 10 µM, safety screen panel; baseline: control).
With `CCO[C@H]1[C@H](O)[C@@H](N)[C@@H](O[C@H]2[C@H](O[C@@H]3O[C@H](CO)[C@@H](O[C@H]4O[C@@H](CN)[C@@H](O)[C@H](O)[C@H]4N)[C@H]3O)[C@@H](O)[C@H](N)C[C@@H]2N)O[C@@H]1CO` the specific binding was 12% (radioligand binding; 10 µM, 1% DMSO).
For `Cc1sc2c(c1C)C(c1ccc(Cl)cc1)=NC(CC(=O)OC(C)(C)C)c1nnc(C)n1-2` (stereo not shown), the inhibition was -4% (ligand displacement, radioligand; 1 µM).
The inhibition of `CS(C)(=O)=Nc1ccc(-c2ccc(-c3nc4cc(O[C@@H]5CO[C@H]6[C@@H]5OC[C@H]6O)[nH]c4cc3F)cc2)cc1` is reported as 48% (calcium signal, antagonist; 10 µM).
For `CCN(CC)CCOc1ccc(-c2nnn(Cc3ccc(OC)cc3)c2N)cc1`, the inhibition was -0.96% (radioligand binding; HEK293; 10 µM, safety profiling).
With `N[C@H](C(=O)N1CCCC1)C1CCN(c2nccc3c(-c4ncc(Cl)cc4Cl)cccc23)CC1` the response was 4% (functional response, agonist; 10 µM).
For `CN[C@@H]1[C@H](O)[C@H](NC)[C@H]2O[C@]3(O)[C@H](O[C@@H]2[C@H]1O)O[C@H](C)C[C@H]3NC(=O)Cc1ccc(Cl)cn1`, the inhibition was -1% (ligand displacement, radioligand; 10 µM).
`CCc1nnc(-c2c(OC)cc(-c3cnc4cc(-c5cnn(C)c5)ccn34)cc2OC)o1` has a remaining binding of 96.8% (antagonist radioligand, radioligand binding; 10 µM, SafetyScreen44 M3 mean; lower = stronger displacement).
For `C[C@H](NCc1ccc(-c2ccc(C(F)(F)F)cc2)cc1)C(N)=O`, “inhibition of binding” read 1% (radioligand binding; 1 µM, with: [3H]N-methylscopolamine 0.80 nM).
`C/C(=N\OCCCN1CCCCC1)c1ccc(C(F)(F)F)cc1` has an activation of 6.92% (agonist, IP-One; 10 µM).
`Cc1cc(Nc2nc(C[C@@]3(C(=O)O)CCN(Cc4cccc(Cl)c4F)[C@H](C)C3)cc(C)c2F)[nH]n1` has an inhibition of 10.8% (inhibitor; 10 µM).
`COc1ccc(F)cc1S(=O)(=O)Nc1cnc2c(c1)C(=O)NCCO2` has an inhibition of 1% (ligand displacement, radioligand; 10 µM).

A few entries again:
For `Cc1sc2c(c1C)C(c1ccc(Cl)cc1)=NC(CC(=O)OC(C)(C)C)c1nnc(C)n1-2` (stereo not shown), the inhibition was -4% (ligand displacement, radioligand; 1 µM).
For `CN[C@@H]1[C@H](O)[C@H](NC)[C@H]2O[C@]3(O)[C@H](O[C@@H]2[C@H]1O)O[C@H](C)C[C@H]3NC(=O)Cc1ccc(Cl)cn1`, the inhibition was -1% (ligand displacement, radioligand; 10 µM).
